Assay results from different studies.
Each numbered part is a random draw from the data of one study; scales do not carry over between parts.

Sample 1
Target: RNA binding protein fox-1 homolog 2, RRM domain, GST-SBP tag (RBFOX2, Homo sapiens, UniProt O43251-10, residues 100-194)
Technique: RNA Bind-n-Seq
Form: RNA
Medium: in vitro
Tested at: 365 nM
Notes: natural RNA segment, single round, ends assumed
Baseline: no-protein control
Reading: higher = stronger binding
Endpoint: RBNS enrichment (R)
Target sequence (chain): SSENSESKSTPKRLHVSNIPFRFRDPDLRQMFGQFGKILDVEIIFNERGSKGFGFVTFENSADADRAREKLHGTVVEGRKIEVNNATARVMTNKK
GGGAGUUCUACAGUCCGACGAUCCACCCUAGAUCCAGCCUCAGGAACUAACAAGUUUUGAGAAAAGCAGGUAGUAGAGCAGCAGCUUCGUGCUCUCAGCGGUGGCUGGCUGGCAUUUUUCUCUAGCGUUGUGGUGGAAUUCUCGGGUGCCAA: 0.64
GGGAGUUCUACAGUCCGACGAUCCUUCUUCCUGCUUCGGUGAUCCGAGGCUAGAGGGAGCUGCAUGGUAUCUUGUUACUAACUCAGUAUGUGUCAAUGUCAAAUACCAUGAAAUAAAGUCUGAAAACCUUAAAUGGAAUUCUCGGGUGCCAA: 0.299
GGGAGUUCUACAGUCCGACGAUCCAUGAAAGACCCAGAGUGAUAUCCACCUCCACCACUCAGCAGUGACCUUCCUCACUUUCUCUUGUCCCGGCUGCCCCUGGGGGCCAGAGAGACCCUUGCCUUCCUUCUGCUGGAAUUCUCGGGUGCCAA: 0.921
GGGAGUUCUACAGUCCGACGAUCUUCUCAGAGCCAAGUCCUCCCUCUCUACUGGAGUGGAAGGUCUAUUGGCCAACAAUCCUUUCUGCCCACUUCCCCUUCCCCAAUUACUAUUCCCUUUGACUUCAGCUGCCUGGAAUUCUCGGGUGCCAA: 0.732
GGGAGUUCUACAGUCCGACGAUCGCAGGAGAGCUGCCCCCUUUCACGGGGUUGGGGAAGGGUCCCCCUGGCCUCCAGCAGGAGCACAGCUCAGCAGGGUCCCUGCUGCCCACCCCUCUGAGCCUUUUCUCCCCUGGAAUUCUCGGGUGCCAA: 0.583
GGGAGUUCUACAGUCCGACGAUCGUGACACCCUGGACCCUGGAUGCUGCUUUCUAAAGUGCACCUGAUCCAUGCAGUUUUAUGUCUUCAUAUAACUGGUAUCUUGUGAGUUUGCAAGCAAUGGGAUGAGCAAGUGGAAUUCUCGGGUGCCAA: 0.666
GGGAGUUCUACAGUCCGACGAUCGCUUCGCUAAUAUUUUAAACAGUCCUGUAAAAACCCACCAAGGACUUUUUGUAUAGAAAGCACUACCCUAAGCCAUGAGGAUCUCCAUGCUUUGCUAACCAAGAUAACUGUGGAAUUCUCGGGUGCCAA: 0.518

Sample 2
Target: Histone acetyltransferase KAT6A, both winged helices, GST fusion (KAT6A, Homo sapiens, UniProt Q92794, residues 1-181)
Technique: protein binding microarray
Form: double-stranded DNA, one strand shown
Medium: in vitro
Tested at: not given
Notes: 8-mer, flanks averaged, mean of 2 arrays, mostly near background
Baseline: not given
Reading: higher = stronger binding
Endpoint: E-score
Residues (chain): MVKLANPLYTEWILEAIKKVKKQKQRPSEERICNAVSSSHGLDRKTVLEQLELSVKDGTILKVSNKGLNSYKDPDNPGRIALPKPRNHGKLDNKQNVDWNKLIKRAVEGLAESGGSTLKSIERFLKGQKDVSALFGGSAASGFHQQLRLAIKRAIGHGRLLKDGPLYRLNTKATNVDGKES
CAAGTTTC: 0.00756
CTTACCTC: -0.261
AGATATCG: -0.0446
ACGTACTC: 0.0279
CGCAGATA: 0.0657
TAGGTTAA: -0.116
AACCTAAC: 0.0268

Sample 3
Target: Sal-like protein 4, full length isoform B (SALL4, Homo sapiens, UniProt Q9UJQ4-2, residues 1-616)
Technique: universal PBM
Form: double-stranded DNA, one strand shown
Medium: in vitro
Tested at: not given
Notes: 8-mer, flanks averaged, mean of replicates
Reading: higher = stronger binding
Endpoint: E-score
CACTGGGC: -0.266
AACGTTAA: 0.161
TAGGCTAA: -0.0699
CTCGAAGC: -0.21
AGCGATCA: -0.167
TGGCATAA: 0.3

Further values, each from its own experiment
PhoQ, residues 284 288 289 292 302 303 SSTLLI — fold induction (PhoP, residues 12 14 15 18 19 AWHSL (Escherichia coli, UniProt P23836); Sort-seq, item: YFP reporter; E. coli; PhoQ-PhoP variant library, together with: 10 µM Mg2+; baseline: high Mg2+ state, higher = stronger signaling): 4.64

Excerpt of the above (sample 1):
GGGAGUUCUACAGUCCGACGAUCGUGACACCCUGGACCCUGGAUGCUGCUUUCUAAAGUGCACCUGAUCCAUGCAGUUUUAUGUCUUCAUAUAACUGGUAUCUUGUGAGUUUGCAAGCAAUGGGAUGAGCAAGUGGAAUUCUCGGGUGCCAA: 0.666
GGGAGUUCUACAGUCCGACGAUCGCUUCGCUAAUAUUUUAAACAGUCCUGUAAAAACCCACCAAGGACUUUUUGUAUAGAAAGCACUACCCUAAGCCAUGAGGAUCUCCAUGCUUUGCUAACCAAGAUAACUGUGGAAUUCUCGGGUGCCAA: 0.518
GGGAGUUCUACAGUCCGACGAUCUUCUCAGAGCCAAGUCCUCCCUCUCUACUGGAGUGGAAGGUCUAUUGGCCAACAAUCCUUUCUGCCCACUUCCCCUUCCCCAAUUACUAUUCCCUUUGACUUCAGCUGCCUGGAAUUCUCGGGUGCCAA: 0.732
